Published values pooled from the literature.
Protocols differ between the studies behind these lines.
B1: gajB 1-494 (Bacillus cereus, UniProt J8HQ06); chain MSREQIIKDGGNILVTAGAGSGKTTILVSKIEADLKENKTHYSIAAVTFTNKAAKEIEGRLGYSSRGNFIGTNDGFVESEIIRPFIKDAFGNDYPDNFTAEYFDNQFASYDKGLQVLKYQNILGTYSNPKKNFKFQLALDILKKSLVARQYIFSKYFKIFIDEYQDSDKDMHNLFMYLKDQLKIKLFIVGDPKQSIYIWRGAEPENFNGLIENSTDFNKYHLTSNFRCCQDIQNYSNLFNEETRSLIKEKNEVQNVISIADDMPISDILLKLTEEKQVLNIEAELVILVRRRNQAIEIMKELNEEGFNFIFIPQTPLDRATPNATLLKEVIKYVKNDRYSIYDLAAEIVGNLSSREIKEIQKIINELLVPNINQVLINQVLINLFAKLEITLDTREITAFTEVMMTNEFDIAFDTNEYLHKIFTVHSAKGLEFNQVIITASDYNVHYNRDTNEHYVATTRAKDKLIVIMDNKKYSDYIETLMKELKIKNIIKSI
B2: CD93 25-347 (Homo sapiens, UniProt Q9NPY3); chain DTEAVVCVGTACYTAHSGKLSAAEAQNHCNQNGGNLATVKSKEEAQHVQRVLAQLLRREAALTARMSKFWIGLQREKGKCLDPSLPLKGFSWVGGGEDTPYSNWHKELRNSCISKRCVSLLLDLSQPLLPSRLPKWSEGPCGSPGSPGSNIEGFVCKFSFKGMCRPLALGGPGQVTYTTPFQTTSSSLEAVPFASAANVACGEGDKDETQSHYFLCKEKAPDVFDWGSSGPLCVSPKYGCNFNNGGCHQDCFEGGDGSFLCGCRPGFRLLDDLVTCASRNPCSSSPCRGGATCVLGPHGKNYTCRCPQGYQLDSSQLDCVDVD
Chain of UniProt P35226 (whole entry, looked up): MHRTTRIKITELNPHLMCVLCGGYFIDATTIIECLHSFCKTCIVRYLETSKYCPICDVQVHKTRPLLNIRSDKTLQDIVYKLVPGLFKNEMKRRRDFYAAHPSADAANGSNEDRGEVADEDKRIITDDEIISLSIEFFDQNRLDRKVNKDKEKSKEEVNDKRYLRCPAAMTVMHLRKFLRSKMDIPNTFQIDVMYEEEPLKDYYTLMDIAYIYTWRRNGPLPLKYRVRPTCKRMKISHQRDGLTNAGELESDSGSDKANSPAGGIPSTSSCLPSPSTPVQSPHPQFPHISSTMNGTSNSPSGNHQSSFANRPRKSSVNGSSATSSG
Chain of UniProt P53946 (whole entry, unmodified, looked up): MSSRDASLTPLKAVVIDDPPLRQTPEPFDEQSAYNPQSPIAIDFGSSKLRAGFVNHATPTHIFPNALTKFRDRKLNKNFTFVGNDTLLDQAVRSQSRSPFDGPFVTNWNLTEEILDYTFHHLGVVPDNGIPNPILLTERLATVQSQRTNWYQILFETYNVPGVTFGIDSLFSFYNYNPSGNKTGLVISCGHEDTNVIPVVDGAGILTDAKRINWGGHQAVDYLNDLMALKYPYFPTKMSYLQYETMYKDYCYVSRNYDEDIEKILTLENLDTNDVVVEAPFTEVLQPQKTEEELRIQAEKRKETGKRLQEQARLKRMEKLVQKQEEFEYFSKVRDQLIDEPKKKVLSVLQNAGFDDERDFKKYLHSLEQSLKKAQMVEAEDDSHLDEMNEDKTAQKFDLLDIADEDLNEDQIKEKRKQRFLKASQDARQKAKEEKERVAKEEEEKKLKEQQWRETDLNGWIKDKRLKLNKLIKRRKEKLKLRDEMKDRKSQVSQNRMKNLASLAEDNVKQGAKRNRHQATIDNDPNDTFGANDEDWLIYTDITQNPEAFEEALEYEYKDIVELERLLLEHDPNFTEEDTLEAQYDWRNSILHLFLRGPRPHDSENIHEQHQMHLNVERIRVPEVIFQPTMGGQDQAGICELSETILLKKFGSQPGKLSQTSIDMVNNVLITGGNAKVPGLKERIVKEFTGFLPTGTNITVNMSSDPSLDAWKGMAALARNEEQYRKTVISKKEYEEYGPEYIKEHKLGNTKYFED
Chain of UniProt P20700 (whole entry, looked up): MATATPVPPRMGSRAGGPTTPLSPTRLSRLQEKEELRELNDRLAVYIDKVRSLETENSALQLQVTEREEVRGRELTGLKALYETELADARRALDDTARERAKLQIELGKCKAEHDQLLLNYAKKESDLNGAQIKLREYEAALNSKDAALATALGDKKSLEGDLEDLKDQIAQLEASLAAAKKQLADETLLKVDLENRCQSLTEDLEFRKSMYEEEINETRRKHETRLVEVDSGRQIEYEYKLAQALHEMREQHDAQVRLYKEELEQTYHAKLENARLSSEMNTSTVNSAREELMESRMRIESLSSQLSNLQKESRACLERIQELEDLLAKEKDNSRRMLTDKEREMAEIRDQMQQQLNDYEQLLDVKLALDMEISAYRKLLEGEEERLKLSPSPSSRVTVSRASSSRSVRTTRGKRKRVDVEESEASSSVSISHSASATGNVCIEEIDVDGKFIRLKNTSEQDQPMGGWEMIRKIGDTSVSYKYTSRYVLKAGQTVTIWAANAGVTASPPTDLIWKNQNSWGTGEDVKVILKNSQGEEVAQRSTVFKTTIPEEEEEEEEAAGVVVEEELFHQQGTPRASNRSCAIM
Chain of UniProt Q99496 (whole entry, looked up): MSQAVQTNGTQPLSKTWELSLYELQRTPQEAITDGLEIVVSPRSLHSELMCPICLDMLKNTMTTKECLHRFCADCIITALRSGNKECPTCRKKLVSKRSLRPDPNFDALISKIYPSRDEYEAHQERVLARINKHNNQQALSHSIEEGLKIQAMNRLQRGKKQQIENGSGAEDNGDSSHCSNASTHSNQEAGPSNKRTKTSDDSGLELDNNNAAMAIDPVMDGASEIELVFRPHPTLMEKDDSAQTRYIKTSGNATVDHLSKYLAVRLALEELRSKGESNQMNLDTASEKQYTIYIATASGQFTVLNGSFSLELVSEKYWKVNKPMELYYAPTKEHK
Chain of UniProt Q12749 (whole entry, looked up): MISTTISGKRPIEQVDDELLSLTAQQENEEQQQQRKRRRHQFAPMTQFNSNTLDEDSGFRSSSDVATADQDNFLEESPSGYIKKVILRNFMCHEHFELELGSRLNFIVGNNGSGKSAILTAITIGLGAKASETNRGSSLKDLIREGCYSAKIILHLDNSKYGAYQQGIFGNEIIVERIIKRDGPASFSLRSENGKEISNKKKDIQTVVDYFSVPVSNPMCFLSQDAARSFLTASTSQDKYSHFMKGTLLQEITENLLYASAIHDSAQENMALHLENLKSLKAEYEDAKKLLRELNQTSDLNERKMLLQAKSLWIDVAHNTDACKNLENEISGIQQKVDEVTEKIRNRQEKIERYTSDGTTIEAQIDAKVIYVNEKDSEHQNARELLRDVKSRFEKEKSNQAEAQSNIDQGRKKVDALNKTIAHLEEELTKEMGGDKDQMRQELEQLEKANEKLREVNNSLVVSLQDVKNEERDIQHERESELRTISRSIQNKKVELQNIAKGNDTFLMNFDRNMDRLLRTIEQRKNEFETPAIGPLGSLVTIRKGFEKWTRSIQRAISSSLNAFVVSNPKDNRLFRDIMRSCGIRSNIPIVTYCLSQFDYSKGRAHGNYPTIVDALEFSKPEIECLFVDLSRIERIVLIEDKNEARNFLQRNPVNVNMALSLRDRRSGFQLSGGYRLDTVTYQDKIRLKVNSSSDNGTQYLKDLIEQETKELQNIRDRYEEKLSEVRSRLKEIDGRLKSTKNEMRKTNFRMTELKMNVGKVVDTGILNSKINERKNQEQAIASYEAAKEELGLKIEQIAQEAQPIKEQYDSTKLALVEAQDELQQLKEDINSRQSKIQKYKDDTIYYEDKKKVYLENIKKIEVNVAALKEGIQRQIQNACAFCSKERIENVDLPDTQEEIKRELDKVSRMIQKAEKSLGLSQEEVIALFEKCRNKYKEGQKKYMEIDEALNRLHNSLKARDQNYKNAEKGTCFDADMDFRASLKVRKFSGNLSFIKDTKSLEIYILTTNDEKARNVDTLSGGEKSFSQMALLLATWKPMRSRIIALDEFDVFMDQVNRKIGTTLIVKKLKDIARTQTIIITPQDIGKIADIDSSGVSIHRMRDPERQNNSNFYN
Chain of UniProt P56450 (whole entry, looked up): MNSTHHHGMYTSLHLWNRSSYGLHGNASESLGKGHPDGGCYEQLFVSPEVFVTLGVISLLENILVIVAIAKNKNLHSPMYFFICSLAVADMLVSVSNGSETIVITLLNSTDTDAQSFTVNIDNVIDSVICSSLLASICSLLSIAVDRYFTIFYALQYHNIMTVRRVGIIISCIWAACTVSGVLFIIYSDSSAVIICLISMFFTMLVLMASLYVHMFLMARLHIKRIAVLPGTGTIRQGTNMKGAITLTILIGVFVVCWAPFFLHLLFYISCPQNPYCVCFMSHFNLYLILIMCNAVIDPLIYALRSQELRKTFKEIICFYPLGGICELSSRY
Chain of UniProt Q96NY8 (whole entry, looked up): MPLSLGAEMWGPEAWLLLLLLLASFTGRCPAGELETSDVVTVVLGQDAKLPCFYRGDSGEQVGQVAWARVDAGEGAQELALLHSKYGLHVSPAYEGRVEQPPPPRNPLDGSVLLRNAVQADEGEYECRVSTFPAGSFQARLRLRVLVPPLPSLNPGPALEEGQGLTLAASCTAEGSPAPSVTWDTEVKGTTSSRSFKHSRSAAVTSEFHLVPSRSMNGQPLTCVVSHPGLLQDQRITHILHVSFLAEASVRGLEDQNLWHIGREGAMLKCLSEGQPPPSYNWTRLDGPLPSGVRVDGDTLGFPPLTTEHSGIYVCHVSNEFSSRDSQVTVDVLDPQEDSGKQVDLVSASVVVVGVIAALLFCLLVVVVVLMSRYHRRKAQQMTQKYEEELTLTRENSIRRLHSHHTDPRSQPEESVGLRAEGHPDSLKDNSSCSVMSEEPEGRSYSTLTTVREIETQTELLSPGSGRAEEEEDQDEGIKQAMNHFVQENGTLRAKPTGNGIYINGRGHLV
Chain of UniProt P40026 (whole entry, looked up): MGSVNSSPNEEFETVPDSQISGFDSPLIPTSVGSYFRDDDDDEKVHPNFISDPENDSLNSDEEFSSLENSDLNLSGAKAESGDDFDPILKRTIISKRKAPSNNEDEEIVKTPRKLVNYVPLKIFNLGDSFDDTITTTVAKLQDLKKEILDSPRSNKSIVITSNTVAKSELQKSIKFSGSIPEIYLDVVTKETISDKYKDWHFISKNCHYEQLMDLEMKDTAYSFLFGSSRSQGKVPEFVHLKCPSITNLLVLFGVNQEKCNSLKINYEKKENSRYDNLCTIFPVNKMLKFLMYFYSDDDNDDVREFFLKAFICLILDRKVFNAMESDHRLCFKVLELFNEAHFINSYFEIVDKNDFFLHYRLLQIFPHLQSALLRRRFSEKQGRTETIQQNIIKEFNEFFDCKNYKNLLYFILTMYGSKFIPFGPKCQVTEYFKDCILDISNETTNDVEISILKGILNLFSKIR
Chain of UniProt J8H9C1 (whole entry, looked up): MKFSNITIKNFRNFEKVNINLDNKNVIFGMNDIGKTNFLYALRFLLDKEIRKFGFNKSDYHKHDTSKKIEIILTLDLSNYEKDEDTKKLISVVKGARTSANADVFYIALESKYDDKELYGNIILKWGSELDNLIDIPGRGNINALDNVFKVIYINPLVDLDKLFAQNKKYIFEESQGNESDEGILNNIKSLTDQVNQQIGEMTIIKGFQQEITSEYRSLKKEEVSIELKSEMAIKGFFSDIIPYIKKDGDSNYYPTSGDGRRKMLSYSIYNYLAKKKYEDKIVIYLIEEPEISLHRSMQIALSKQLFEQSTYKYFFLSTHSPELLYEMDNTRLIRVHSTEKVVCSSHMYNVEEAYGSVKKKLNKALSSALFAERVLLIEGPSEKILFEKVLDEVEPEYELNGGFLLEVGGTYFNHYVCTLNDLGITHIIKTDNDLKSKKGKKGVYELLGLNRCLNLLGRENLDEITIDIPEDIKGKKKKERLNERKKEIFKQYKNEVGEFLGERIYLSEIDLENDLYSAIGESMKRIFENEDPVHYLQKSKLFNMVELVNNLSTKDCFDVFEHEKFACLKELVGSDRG

The Ka of `DYNLRB1/DYNLL1/DYNLT1/DYNC1LI2/DYNC1I2/DYNC1H1 dynein-1 complex (Homo sapiens)` is reported as > 1.6e+06 M⁻¹ (NINL/BICD2 chimera NINL CC, BicD2 LIC-BD 1-275, HaloTag, JF646 label; pull-down).
Under cross-linked residues, `ALB (Homo sapiens, UniProt P02768)` is recorded as “K298 to K191” (ZFP69B (Homo sapiens, UniProt Q9UJL9); cross-linking MS; added: DSSO).
`B1 (gajB 1-494)`: “GajB per GajA” 1 GajB per GajA (GajA 1-578 (Bacillus cereus, UniProt J8H9C1); cryo-EM).
For `ADCYAP1 PACAP (Homo sapiens)`, the pA2 was 1.38 µM (CALCRL/RAMP1 whole, on cells, myc, HA tags (human); cAMP accumulation, antagonist; Cos7; off-target control, added: CGRP).
`H2A/H2B dimer (Xenopus laevis)` — result for “dimer pull-down reduction”: 4 fold (ARP5 557-581 L567A/L568A/D571A (Saccharomyces cerevisiae, UniProt P53946); pull-down; relative to: wild-type, higher = greater reduction).
`alpha-MSH mature (UniProt P01189)` gave an EC50 of 0.0115 µM (Mc4r (Mus musculus, UniProt P56450); cAMP production, agonist, BRET EPAC sensor; HEK293; 3 min).
`ACPFGCMKNWSWPAWCTNK (Bicycle 70 bicyclic peptide; C-terminal amide/TATA scaffold, three cysteines cyclised)` gave a Ki of 0.0396 µM (NECTIN4 32-349 (Homo sapiens, UniProt Q96NY8); fluorescence polarisation; peptide).
`KRE29 (Saccharomyces cerevisiae, UniProt P40026)`: interaction screen “cross-linked” (SMC6 (Saccharomyces cerevisiae, UniProt Q12749); cross-linking MS; hits only).
Under “melting point shift”, `Cdh1/Emi1/Skp1` is recorded as 1.6 K (APC/C (Homo sapiens); differential scanning fluorimetry).
`FGA (Homo sapiens, UniProt P02671)` — result for cross-linked residues: “K440 to K479” (CASP10 (Homo sapiens, UniProt Q92851); cross-linking MS; added: DSSO).
For `LMNA (Homo sapiens, UniProt P02545)`, cross-linked residues read “K144 to K156” (LMNB1 (Homo sapiens, UniProt P20700); cross-linking MS; cells; added: iqPIR).
`B2 (CD93 25-347)` has an affinity decrease of > 10 fold (IGFBP7 30-159 Y80A (Homo sapiens, UniProt Q16270); ITC; 25 °C; relative to: wild-type IGFBP7, higher = weaker binding).
`BIRC3 (Homo sapiens, UniProt Q13489)` — result for cross-linked residues: “K402 to K999” (KDM2B (Homo sapiens, UniProt Q8NHM5); cross-linking MS; added: DSSO).
`BMI1 (Homo sapiens, UniProt P35226)`: interaction screen “cross-linked” (RNF2 (Homo sapiens, UniProt Q99496); cross-linking MS; hits only).

For quick reference, copied from above:
`FGA (Homo sapiens, UniProt P02671)` — result for cross-linked residues: “K440 to K479” (CASP10 (Homo sapiens, UniProt Q92851); cross-linking MS; added: DSSO).
For `LMNA (Homo sapiens, UniProt P02545)`, cross-linked residues read “K144 to K156” (LMNB1 (Homo sapiens, UniProt P20700); cross-linking MS; cells; added: iqPIR).
